Measurements gathered from unrelated publications.
Lines come from different studies, so protocols differ.
Target: TGF-beta receptor type-1 (TGFBR1, Homo sapiens, UniProt P36897)

SMILES	assay	system	conditions	scale	quantity	value
Cc1ccc(-c2c(/C=C(\C#N)C(=O)NC(C)C)n(CCCO)c3ncnc(N)c23)cc1	cell-free assay, competition with immobilised ligand		1 µM		remaining binding	87%
Cc1nc2c(F)cc(-c3nc(Nc4ccc(CNC(=O)CCCCCCC(=O)NO)cc4)ncc3F)cc2n1C(C)C	enzyme activity, inhibitor		1 µM		inhibition	44%
COc1ccc(O)cc1-c1c[nH]c2ncc(-c3cncc(C(=O)N(C)C)c3)cc12	binding, competition with immobilised ligand		0.2 µM		inhibition	16.6%
COc1c(Cl)cccc1Nc1c(-c2ccncc2C#C[C@@]2(C)CCCN2C(=O)/C=C/CN(C)C)[nH]c2c1C(=O)NCC2	cell-free assay, competition with immobilised ligand		3 µM		remaining binding	89%
CC(=O)N1c2ccc(-c3ccc(CNC(=O)c4cn5cc(-c6cnc(N)nc6)nc(N6CCOCC6)c5n4)cc3)cc2CC[C@@H]1C	KINOMEscan		10 µM		remaining binding	99%
CCN1CCN(Cc2ccc(C(=O)Nc3ccc(C)c(NCc4cnc5[nH]ccc5c4OC)c3)cc2C(F)(F)F)CC1	binding, competition with immobilised ligand		1 µM		remaining binding	100%
CNC1C[S+]2CC[S+]3CC[S+](C1)[Ru-4]321([N]=C=S)[n]2c3ccc(OC)cc3c3c4c(c5cc(F)c[n+]1c5c32)C(=O)NC4=O (centres unmarked)	KinomeScan		0.1 µM	baseline: untreated	remaining binding	100%
C=CC(=O)N1Cc2nc(-c3cc(-c4cc(Cl)cnc4Cl)c(F)cc3F)n(-c3ccncn3)c2C1	cell-free assay		1 µM		inhibition	4.1%
NC(=O)C[C@H]1CCc2sc3ncnc(O[C@H]4CC[C@H](N5CCOCC5)CC4)c3c21	enzyme activity, inhibitor		10 µM		inhibition	-3%
COc1cc(Nc2nccc(-c3cnn4nc(OC)ccc34)n2)cc(C(F)(F)F)c1	binding, competition with immobilised ligand		1 µM		remaining binding	82%
C=CC(=O)N1CCc2ccc(-n3c(=O)ccc4cnc5ccc(-c6cnn(C)c6)cc5c43)cc21	KINOMEscan		1 µM	baseline: DMSO control	remaining binding	96%
CNC(=O)C[C@H](Cc1ccc(C#N)cc1)NC(=O)c1cc(-c2ccc(CN[C@H](C)c3ccc(C)cc3)o2)ccc1Cl	enzyme activity, inhibitor		1 µM		activity vs control	100%
COc1ccc(NC(=O)Nc2ccc3c(c2)C(=O)N(C(C)CO)CC(C)C(CN(C)Cc2ccc4c(c2)OCO4)O3)cc1 (centres unmarked)	binding, competition with immobilised ligand		10 µM		remaining binding	100%
CN1CCN(Cc2ccc(NC(=O)c3cccc(C#Cc4cnc(N)c5ncccc45)c3)cc2C(F)(F)F)CC1	cell-free assay, competition with immobilised ligand		0.5 µM		remaining binding	100%
CNS(=O)(=O)Nc1nccc(Cc2c(C)c3ccc(Oc4ncccc4F)cc3oc2=O)c1F	cell-free assay, competition with immobilised ligand		10 µM		remaining binding	90%
O=C(Cc1ccc(OCc2ccccc2)cc1)NC1(C(=O)O)CCN(C(=O)c2ccc(-c3cccc(Cl)c3)cc2)CC1	enzyme activity, inhibitor		10 µM		activity vs control	102%
Cc1ccc(C(=O)Nc2ccc(CN3CCN(C)CC3)c(C(F)(F)F)c2)cc1C#Cc1cnc2cccnn12	target engagement, NanoBRET	human cells			upper asymptote	7.4

Repeated from above:
SMILES	assay	system	conditions	scale	quantity	value
NC(=O)C[C@H]1CCc2sc3ncnc(O[C@H]4CC[C@H](N5CCOCC5)CC4)c3c21	enzyme activity, inhibitor		10 µM		inhibition	-3%
COc1cc(Nc2nccc(-c3cnn4nc(OC)ccc34)n2)cc(C(F)(F)F)c1	binding, competition with immobilised ligand		1 µM		remaining binding	82%
